Experimental data of several laboratories.
Each numbered part is a random draw from the data of one study; scales do not carry over between parts.

Study 1
Target: Histone acetyltransferase KAT6A, winged helix 1, GST fusion (KAT6A, Homo sapiens, UniProt Q92794, residues 1-85)
Technique: protein binding microarray
Form: double-stranded DNA, one strand shown
Sample: in vitro
Concentration: not given
Notes: 8-mer, flanks averaged, mean of 2 arrays, mostly near background
Baseline: not given
Reading: higher = stronger binding
Residues (chain): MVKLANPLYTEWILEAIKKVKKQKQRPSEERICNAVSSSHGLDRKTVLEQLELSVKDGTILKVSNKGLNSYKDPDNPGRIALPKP
With `CAGTCTAC` the E-score was 0.0734.
The E-score of `CGGCGCAG` is reported as 0.398.
`CACGTGCC` has an E-score of -0.194.
The E-score of `GCCCTCCC` is reported as 0.0845.
The E-score of `ATCGAGCC` is reported as 0.0428.
For `CCACCAGA`, the E-score was -0.25.
With `ATTAGCGG` the E-score was 0.246.
With `CGCCGAAG` the E-score was 0.331.
With `ACAACACT` the E-score was -0.202.
`GGGGTACA` gave an E-score of -0.0663.
`CATCCAGA` gave an E-score of -0.127.
`AACGCTTC` gave an E-score of -0.00971.
For `CAATCAGG`, the E-score was -0.161.
The E-score of `GTGGGTAA` is reported as -0.077.
For `GAAAAGGC`, the E-score was 0.0788.
`CTTCTAAA` gave an E-score of -0.238.
With `AAAGGATT` the E-score was -0.245.
With `ACCCCACT` the E-score was -0.298.
`AGGCGAGG` gave an E-score of -0.0701.
`ATTGTTGC` gave an E-score of -0.131.
With `ATCATGAC` the E-score was -0.291.
The E-score of `CAGTTTAA` is reported as -0.0946.
The E-score of `CCGTGTCC` is reported as 0.221.

Study 2
Cell line: yeast with cyclin A1-Cln2 chimera
Observed: cell growth
Action: binder
Technique: competitive growth deep sequencing
Form: peptide
Concentration: concentration not given
Notes: peptide tiling library
Reading: direction not given
`GAEELEDLVHFSVSEL`: “growth enrichment score” 1.16.
For `AEHPKPSACRNLFGPV`, “growth enrichment score” read 0.123.
For `NFETPEAETPIRSPFK`, “growth enrichment score” read -0.202.
`SDSTVTKLDFDLEP`: “growth enrichment score” -0.364.
`NNIRKALSFDNRGEEH`: “growth enrichment score” -0.998.
`FQDSGYNELKSCSFDN` — result for “growth enrichment score”: 0.933.
`VLPGGVPSPGASLTSM` — result for “growth enrichment score”: 0.669.
For `SGYLTDENEVGFRG`, “growth enrichment score” read -0.21.
For `RNRGPKLNAMLRLGVL`, “growth enrichment score” read -0.546.
Under “growth enrichment score”, `VRDLSYRLVFLACCVA` is recorded as -0.651.
`KDDDKAWEYEERDRRS`: “growth enrichment score” -0.302.
`PQWPCGKHKRVLIFAS` — result for “growth enrichment score”: -0.202.
`LENIEPLQVSFAVLSS` — result for “growth enrichment score”: 0.368.
Under “growth enrichment score”, `TSPGPVLLHPSPSTTQ` is recorded as 0.245.
For `VLVRTSACRSLFGPVD`, “growth enrichment score” read -1.33.
For `QNPCGSKACRRLFGPV`, “growth enrichment score” read -0.967.

Study 3
Target: RING finger protein unkempt homolog, zinc fingers 1-6, GST-SBP tag (UNK, Homo sapiens, UniProt Q9C0B0, residues 30-357)
Technique: RNA Bind-n-Seq
Form: RNA
Sample: in vitro
Concentration: not given
Notes: RNA with constant flanks, ends assumed
Baseline: input RNA pool
Reading: higher = stronger binding
Constant ends, left off below: GGGAGUUCUACAGUCCGACGAUC … CAACAGAGGAUUGAGCAUCA
Construct (chain): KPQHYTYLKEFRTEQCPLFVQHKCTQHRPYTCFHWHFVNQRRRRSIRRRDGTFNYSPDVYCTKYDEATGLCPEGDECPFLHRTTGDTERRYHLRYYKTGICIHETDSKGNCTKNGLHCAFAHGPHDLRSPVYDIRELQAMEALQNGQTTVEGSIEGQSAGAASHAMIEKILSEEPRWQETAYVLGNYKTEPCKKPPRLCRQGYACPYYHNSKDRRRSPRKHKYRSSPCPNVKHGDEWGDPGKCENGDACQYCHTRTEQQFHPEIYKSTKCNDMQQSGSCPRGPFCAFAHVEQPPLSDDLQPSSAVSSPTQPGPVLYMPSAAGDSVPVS
With `CCUUCUAAUUUUGGAGAUUUUUCUCAGAAUGUUUCUACACCUACUGAACAGCAGCAGCCAUCCGCUCAAAAUCCUUCAGGGAAAACAGAGUAUAUGGCUUUUCCAAAACCCUUUGAAAGC` the bound/input enrichment was 0.138 ratio.
With `GCAAAAGUUUAUAUCAUAUUGGAUCAACCUGUGACUGCUUUAAAUCUAUUUAAACAAGGCUCCGAUAAGUUUCCAGGAGAGGUGACCCUGCUUUGUGGAAUUGCCAGGAUCUAUGAGGAA` the bound/input enrichment was 0.317 ratio.
With `UUAAUGUUUUCGAACUGCUUUGAAUACAACCCUCGUAACACAAGUGAAGCAAAAGCUGGAACCCGGCUUCAAGCAUUUUUUCAUAUUCAGGCUCAAAAGCUUGGACUCCACGUCACACCC` the bound/input enrichment was 0.201 ratio.
`GCUGUGUCCCUGAGUGGUGGCUUUCCCUCCUGUCACGUGACAUCCCAUUCACUCAUCUACACCCGCCCAGUGCUCCCAUUGUCCCCUGCCUCCUCUGUAAUUUUUGCCCCUUCCAGGGUA` gave a bound/input enrichment of 0.15 ratio.
For `UCAGUUAAGUUGUCAGAAAACAUGAAGGCUUCAUCCUUUAAAAAACUACAGAAGUUUUAUACCGACCCAUAUAAGCUGCUGCCACUGCAGAGGUUUUUACCUCGACCUCCAGGUGAGAAA`, the bound/input enrichment was 0.267 ratio.
`UGGCCUUGAUUUAGUGACAGUUUAUUCUAAUGGGGACCAUAGGUGUUAUUAGUAAAAAGACCGUGUACAAGGCCUAAGUUCAGUUUACAUUGUUCUUUGAAAUGAGUUCAUCUUUUGUGU` has a bound/input enrichment of 1.01 ratio.
The bound/input enrichment of `AUAAAAUGUGUUUUGUGUUCCCAUUACUGCAGUAGGUGCUAGUGAGCAUAAGAUGCAUACAACCGGGCUCCUGCCCUUCCCUGAGUUAGAAUGUGGUUCAGUACAUAUGUUUAGUAUGCA` is reported as 1.54 ratio.
`AGGUCUGACCGAGUUAAGAGCGUGGAUUUGCAUCCCACAGAGCCAUGGAUGUUGGCCCGUCUUUACAAUGGCAGUGUGUGUGUUUGGAAUCAUGAAACUCAGACACUGGUGAAGACGUUU` gave a bound/input enrichment of 0.0931 ratio.

Study 4
Target: RNA binding protein fox-1 homolog 2, RRM domain, GST-SBP tag (RBFOX2, Homo sapiens, UniProt O43251-10, residues 100-194)
Technique: RNA Bind-n-Seq
Form: RNA
Sample: in vitro
Concentration: 365 nM
Notes: natural RNA segment, single round, ends assumed
Baseline: no-protein control
Reading: higher = stronger binding
Constant ends, left off below: GGGAGUUCUACAGUCCGACGAUC … UGGAAUUCUCGGGUGCCAA
Target sequence (chain): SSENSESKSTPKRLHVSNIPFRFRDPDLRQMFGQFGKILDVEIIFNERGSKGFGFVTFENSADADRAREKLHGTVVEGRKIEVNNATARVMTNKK
`CAUCUCACCGCUUCUUGUUUGACACCUUCACAAGUCAGCAUUAAUCUUUCUUUUAAAACUUGUUUCAUUUAUGAUCAUGUAGAGAGCCACUAGGAGGCCUGCAGUUAUUU`: “RBNS enrichment (R)” 0.514.
`CCAAAUUGCUGGUGGAUAUGGGGCUGAAGGCAGAAGCAGCUGGGAAGGGCAGUAGAGGCGCAAGCUGGGUCCUGCUGGCCGGGGUAGCUCAGCUGUGACUUUGGACUCUG`: “RBNS enrichment (R)” 0.692.
Under “RBNS enrichment (R)”, `GUCAGUACCUUAUUGUUAAAGUGAGUCAGAUAAAUCUUCAAUUCCUGGCUAUUUGGGCAAUUGAAUCAUCAUGGACUGUAUAAUGCAAUCAGAUUAUUUUGUUUCUAGAC` is recorded as 0.574.
For `UUUGGCCAUUGUCUAUUUGACAGUAACAGUAUUCCCAAUUUUUGUAAAGUUGUAUGUGCUGUUGUGUAAGUGUAACACUGUUUUUCUCUUGCAUGAAAUAGAUUUACUCU`, “RBNS enrichment (R)” read 2.7.
`AAGGCCUCCUCCCGUUUCUCAUCAGCUUGCCUGCUACCACUUUGCCUUCUGGCCUCCAGCUGGGCCAGGAAGCAAGGUGGGAACACCUCCUCGGCCUUGAAGGCCCAAUG`: “RBNS enrichment (R)” 0.398.
Under “RBNS enrichment (R)”, `AAGUUGAAGAGUACUUUUGAUCAGUUUAUGAUUCAGUUUAUGAUUUUAGUUUUUGCCUUCAUGUUAUACAUUUAUGAUUUGAAACUGUACAUCUGUUACCUUGAAAAACA` is recorded as 0.766.
`UACUUUAGUUGUGGGUGUUAGAGUUUUUGUGUCAUGACUCAGUGUGGUUCACAUUCCUAGUGAGAAGCAGAGAUCUGGAGGUGUGCAGUCCUCAGCCUCACAGCUUCCUU`: “RBNS enrichment (R)” 1.09.
`ACCCGGUGCGGCCUCAGCAGCUUCUGUGGGAACAGAGCCAGUCUGCACGGAGGAGGCUAAGACUCCAUCUCGGCCUUUGAACUCAGAGAUCCCCCUGCCUCAGCCUCCAG`: “RBNS enrichment (R)” 0.356.

A few entries again (study 1):
With `CGCCGAAG` the E-score was 0.331.
The E-score of `CCGTGTCC` is reported as 0.221.
`GGGGTACA` gave an E-score of -0.0663.
`AACGCTTC` gave an E-score of -0.00971.
The E-score of `CGGCGCAG` is reported as 0.398.
